Assay results collected from several papers.
Every numbered part comes from another study and shows a few of its results, in no order. Changes are numbered by the printed parent chain.

Study 1
Target: CCNA2, cyclin fold, Cln2 fusion (human)
Technique: yeast growth competition, sequencing
Sample: yeast
Setting: strong parent motif
Reference: not given
Direction: higher = stronger binding
Starting sequence: SCAPER docking peptide (human); SNARRSLNFGGST; partner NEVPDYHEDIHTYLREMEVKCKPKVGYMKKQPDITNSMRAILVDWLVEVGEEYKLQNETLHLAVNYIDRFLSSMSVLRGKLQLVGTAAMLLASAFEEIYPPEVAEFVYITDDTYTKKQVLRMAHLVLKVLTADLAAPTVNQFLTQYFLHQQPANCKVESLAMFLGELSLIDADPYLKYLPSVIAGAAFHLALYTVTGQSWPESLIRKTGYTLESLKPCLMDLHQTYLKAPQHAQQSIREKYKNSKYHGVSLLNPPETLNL
For `SNARRSLNFGQST [G11Q]`, “normalised enrichment score” read 6.55.
For `SNARRSLHFGGST [N8H]`, “normalised enrichment score” read 5.66.
`SNARRHLNFGGST [S6H]` — result for “normalised enrichment score”: 6.72.
For `SNARQSLNFGGST [R5Q]`, “normalised enrichment score” read 2.52.
`SNARWSLNFGGST [R5W]` — result for “normalised enrichment score”: 0.404.
Under “normalised enrichment score”, `SFARRSLNFGGST [N2F]` is recorded as 5.92.
`SMARRSLNFGGST [N2M]`: “normalised enrichment score” 4.95.
Under “normalised enrichment score”, `SNARRSLNFGGSF [T13F]` is recorded as 6.
Under “normalised enrichment score”, `SNARRSKNFGGST [L7K]` is recorded as 0.917.
Under “normalised enrichment score”, `SNARRSLNFGCST [G11C]` is recorded as 6.47.
For `VNARRSLNFGGST [S1V]`, “normalised enrichment score” read 6.59.
For `SNARRSLNFGGSM [T13M]`, “normalised enrichment score” read 5.98.
For `SNAWRSLNFGGST [R4W]`, “normalised enrichment score” read 1.79.
`SNARSSLNFGGST [R5S]` — result for “normalised enrichment score”: 1.26.
`SNARRSHNFGGST [L7H]` — result for “normalised enrichment score”: 1.05.
`SNARRSLNFGGMT [S12M]` — result for “normalised enrichment score”: 5.39.
For `SNARHSLNFGGST [R5H]`, “normalised enrichment score” read 1.54.
For `SNARRVLNFGGST [S6V]`, “normalised enrichment score” read 6.01.
`SNFRRSLNFGGST [A3F]`: “normalised enrichment score” 4.66.
Under “normalised enrichment score”, `SNASRSLNFGGST [R4S]` is recorded as 2.39.
`SNARRSLNPGGST [F9P]` — result for “normalised enrichment score”: 1.29.
`SNARRSLNFGYST [G11Y]` — result for “normalised enrichment score”: 6.15.
For `ENARRSLNFGGST [S1E]`, “normalised enrichment score” read 4.09.
For `SNARRSLNFRGST [G10R]`, “normalised enrichment score” read 4.92.
`SNARRSLNFGGSE [T13E]`: “normalised enrichment score” 6.45.

Study 2
Target: Ras GTPase-activating protein-binding protein 1, full length (G3BP1, Homo sapiens, UniProt Q13283)
Chain of UniProt Q13283 (whole entry, looked up): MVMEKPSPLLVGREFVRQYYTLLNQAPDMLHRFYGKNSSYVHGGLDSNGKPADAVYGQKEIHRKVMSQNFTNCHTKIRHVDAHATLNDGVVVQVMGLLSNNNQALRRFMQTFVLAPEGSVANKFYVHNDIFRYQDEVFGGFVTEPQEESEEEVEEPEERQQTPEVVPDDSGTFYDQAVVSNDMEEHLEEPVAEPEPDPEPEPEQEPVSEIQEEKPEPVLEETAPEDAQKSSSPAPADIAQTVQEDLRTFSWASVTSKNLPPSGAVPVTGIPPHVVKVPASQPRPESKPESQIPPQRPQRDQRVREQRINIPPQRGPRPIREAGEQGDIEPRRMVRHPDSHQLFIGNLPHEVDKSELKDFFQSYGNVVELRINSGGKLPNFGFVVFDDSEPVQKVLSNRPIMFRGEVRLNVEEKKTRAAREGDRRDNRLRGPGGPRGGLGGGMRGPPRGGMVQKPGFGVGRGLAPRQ
Technique: RNA Bind-n-Seq
Molecule type: RNA
Sample: in vitro
Concentration: 200 nM
Setting: whole 134-nt RNA, ends assumed
Added: 150 mM LiCl
Reference: input library
Direction: higher = stronger binding
Each molecule: 7-deaza-guanosine replaces G
`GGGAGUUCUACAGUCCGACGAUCACCAUGCAGGUGGGCAUCUUUGGGAAGUGGGGCAAGGGGGGGAUAGGGAGGGGGGUAACACUUAAAGAACAGGUGGUCCCAGGUCGUUUCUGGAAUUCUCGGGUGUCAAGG` gave a log2 enrichment of -4.47e-05.
`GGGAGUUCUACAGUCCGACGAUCUUUUCAAAAUAAGGAGCUUCCCAGACCUGUGUUAGAAGGGCAGCAGUCAGAGAGGACCCCAAAUAAUCGCCCUGAUGCCCCUAAGGAGAAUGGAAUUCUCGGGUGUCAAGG` has a log2 enrichment of -0.31.
`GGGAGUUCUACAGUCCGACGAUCUGCUGUGUCACCGGGAACGCAAAGGCUGGGAAGAAGGCCCUUCUCAAAAUGGACUGGUGUUGCAGGGUGAGAAGCUGCCCCCUGACUUCAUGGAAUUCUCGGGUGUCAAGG` has a log2 enrichment of -0.231.
`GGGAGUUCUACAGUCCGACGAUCUAUUGGACACAGUGCCCCGCUGAACAGCAGCUGUUCCCAGCGCCAGAGGACCCCACAGCCACAGUAGGAGCUUUGCGACCCCUACGCAACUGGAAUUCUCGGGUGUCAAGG` gave a log2 enrichment of -1.49.
`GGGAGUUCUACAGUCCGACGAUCUCCUGUGCUACACAUCGUAUGUACCGAAUCGGGAAAAAAAGGGAAAAAAAGGGAAAGGGAAAGUAUUAUGUUACGCCGUUCGGAUCUGCAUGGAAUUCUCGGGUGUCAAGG` gave a log2 enrichment of 0.32.
For `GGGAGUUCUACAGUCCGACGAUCUGGAGCCCAACCUGUGCCGCUCAGUCCUCAUUGCCAACACGGUCCGGCAGAUCCAAGAGGAGAUGACGCAGGAUGGGACGUGGCGCACAGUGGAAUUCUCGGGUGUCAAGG`, the log2 enrichment was -2.04.
`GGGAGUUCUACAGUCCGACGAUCGCAGGAAGUAAAAAGAAAUGGAAAUGCUUCGGAUAGUGGCAGGGGUGGGGGUUGCUAAGGAAAGGGUGGGAUGGGAGUGGGUAAAGAGUUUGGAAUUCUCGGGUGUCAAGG` gave a log2 enrichment of -0.273.
With `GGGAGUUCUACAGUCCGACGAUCGUCCUGUGCUACACAUCGUAUGUACCGAAUCGGGGAAAAAAAGGGGAAAGGGGAGGGGAAAGUAUUAUGUUACGCCGUUCGGAUCUGCACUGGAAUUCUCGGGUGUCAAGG` the log2 enrichment was 0.317.

Study 3
Target: ABI1, truncated, D143A, DHFR fusion (Arabidopsis thaliana)
Technique: DHFR PCA, deep sequencing
Sample: yeast
Setting: methotrexate growth selection, single substitutions
Added: (+)-ABA 200 µM
Reference: wild-type fitted maximum
Direction: higher = stronger binding
Starting sequence: PYL1, truncated, DHFR fusion (Arabidopsis thaliana); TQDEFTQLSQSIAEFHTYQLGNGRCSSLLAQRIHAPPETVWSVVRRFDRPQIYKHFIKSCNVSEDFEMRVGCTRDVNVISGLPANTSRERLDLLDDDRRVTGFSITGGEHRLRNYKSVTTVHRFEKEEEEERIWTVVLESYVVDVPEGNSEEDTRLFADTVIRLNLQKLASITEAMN
Under “relative binding score”, `A13Q` is recorded as 105%.
For `D97T`, “relative binding score” read 111%.
Under “relative binding score”, `A170G` is recorded as 88.4%.
`L28E`: “relative binding score” -10.4%.
For `E147R`, “relative binding score” read 88.9%.
`Q10F`: “relative binding score” 89.7%.
For `K116D`, “relative binding score” read -2.58%.
`S9M`: “relative binding score” 85.6%.
`L112F` — result for “relative binding score”: 106%.
`T1R`: “relative binding score” 95.5%.
Under “relative binding score”, `L156E` is recorded as 91.8%.
`A84G` — result for “relative binding score”: 96.3%.
`A30Q`: “relative binding score” 98.7%.
`G148R` — result for “relative binding score”: 73.1%.
Under “relative binding score”, `T1H` is recorded as 103%.
`P146W`: “relative binding score” 19.6%.

Study 4
Target: Prothrombin, mature alpha-thrombin (F2, Homo sapiens, UniProt P00734)
Technique: aptamer microarray, sandwich
Molecule type: DNA with 2'F-ANA
Sample: in vitro
Concentration: 200 nM
Setting: whole 15-mer aptamer, many near background
Added: Cy3 exosite-II aptamer, 400 nM
Direction: higher = stronger binding
Oligonucleotide: GGTTGGTGTGGTTGG
Under “mean fluorescence intensity”, `2'F-ANA at 1 2 3 5 6 9 10 11 13` is recorded as 57.7 a.u.
`2'F-ANA at 2 3 4 7 9 12 13 14 15`: “mean fluorescence intensity” 299 a.u.
For `2'F-ANA at 3 5 6 7 8 9 11 13 14`, “mean fluorescence intensity” read 51.4 a.u.
`2'F-ANA at 3 4 5 6 7 9 10 12 14 15` — result for “mean fluorescence intensity”: 48.8 a.u.
`2'F-ANA at 1 5 7 8 10 12 13 15`: “mean fluorescence intensity” 84.7 a.u.
`2'F-ANA at 1 4 5 6 7 9 11 12 13`: “mean fluorescence intensity” 79.3 a.u.
`2'F-ANA at 1 2 5 6 9 10 11 12 13 15` — result for “mean fluorescence intensity”: 54.7 a.u.
`2'F-ANA at 1 2 3 6 8 9 10 13 14 15`: “mean fluorescence intensity” 97.6 a.u.
`2'F-ANA at 6 8 9 10 15` — result for “mean fluorescence intensity”: 151 a.u.
`2'F-ANA at 2 3 11 13` — result for “mean fluorescence intensity”: 697 a.u.
Under “mean fluorescence intensity”, `2'F-ANA at 1 5 6 7 8 9 10 11 12 13 15` is recorded as 57.8 a.u.
`2'F-ANA at 1 4 5 7 8 9 11 13 14 15`: “mean fluorescence intensity” 58.9 a.u.
For `2'F-ANA at 1 2 3 5 8 9 11 12 13 14`, “mean fluorescence intensity” read 50 a.u.
For `2'F-ANA at 2 3 5 6 7 12 14`, “mean fluorescence intensity” read 51.8 a.u.
Under “mean fluorescence intensity”, `2'F-ANA at 3 4 6 9 10 11 12 13 15` is recorded as 231 a.u.
Under “mean fluorescence intensity”, `2'F-ANA at 3 4 5 8 10 12 15` is recorded as 60.7 a.u.

A few entries again (study 3):
`S9M`: “relative binding score” 85.6%.
`L112F` — result for “relative binding score”: 106%.
`T1R`: “relative binding score” 95.5%.
Under “relative binding score”, `L156E` is recorded as 91.8%.
`A84G` — result for “relative binding score”: 96.3%.
`A30Q`: “relative binding score” 98.7%.
`G148R` — result for “relative binding score”: 73.1%.
